Experimental data from different studies.
Each line is one published result; not all experiments were run side by side. ± marks the error that the study gave.

Structure (SMILES)	assay	system	setting	scale	inhibition
CC1=C2C(=O)C3=CC(C)(C)N=C4CCCC2(CC(C)(C)N1)C34O (single isomer, unassigned; (-))	acetic acid-induced writhing	mouse	intraperitoneal, 0.2 mg/kg, 0.5 h, writhes counted over 30 min		65.3 ± 1.5%
Cc1cc(NC(=O)[C@H](O)c2cc(F)cc(F)c2)ccc1-c1cnc(N)c(C(=O)NC(C)C)c1	refers to: phospho-PERK	mouse, pancreas	oral, 100 mg/kg, 12 h		> 80%
CC(C)c1cnc(-c2cc(Cl)ccc2F)cc1Nc1ccncc1C(=O)NC(CO)CO	refers to: pSMAD2	4T1 tumour-bearing mouse, tumour	100 mg/kg twice daily, 0 to 8 h average	relative to: vehicle	82%
Fc1ccc(NCc2cn(-c3ccccc3)nc2-c2ccc(OCc3ccccc3)cc2)cc1Cl	acetic acid-induced writhing	mouse	oral, 20 mg/kg, 30 min pretreatment, writhes counted over 20 min, with: 0.6% acetic acid ip		72.5 ± 1.22%
CCCCCC(C)(O)/C=C/C=C\C=C\C=C\[C@@H](O)[C@@H](O)CCCC(=O)OC (mixture of isomers)	PMN infiltration	mouse, dorsal air pouch	intrapouch, 10 µg/pouch, 4 h, with: TNF-α 20 ng		~50%
C=CC(=O)N1C[C@H](C)N(c2nc(OC[C@@]34CCCN3C[C@H](F)C4)nc3c(F)c(-c4ccc(F)c5sc(N)c(C#N)c45)c(C(F)(F)F)cc23)C[C@H]1C	refers to: phospho-ERK	mouse MIA PaCa-2 Matrigel plug	30 mg/kg single dose, 2 h		40%
COc1c2c(cc3oc(COC4OC(CO)C(O)C(O)C4O)cc(=O)c13)OC(C(C)(C)O)C2 (stereo not drawn)	ear edema weight	mouse, xylene ear edema	oral, 2 mg/kg	relative to: vehicle	22%
COC(=O)C1OC(Oc2c(-c3ccccc3)oc3cc(O)c(O)c(O)c3c2=O)C(O)C(O)C1O (stereo not drawn)	paw oedema	mouse, carrageenan-induced paw oedema	oral, 2 mg/kg, 0 h	relative to: 10 h	13.8%
COc1cccc(NCc2cn(-c3ccccc3)nc2-c2ccc(OCc3ccccc3)cc2)c1	acetic acid-induced writhing	mouse	oral, 20 mg/kg, 30 min pretreatment, writhes counted over 20 min, with: 0.6% acetic acid ip		67.9 ± 2.33%
COc1c2c(cc3oc(CO)cc(=O)c13)O[C@H](C(C)(C)O)C2	ear edema weight	mouse, xylene ear edema	oral, 1 mg/kg	relative to: vehicle	35%
NS(=O)(=O)c1ccc(-n2cc(CNc3ccccc3)c(-c3ccc(OCc4ccccc4)cc3)n2)cc1	acetic acid-induced writhing	mouse	oral, 20 mg/kg, 30 min pretreatment, writhes counted over 20 min, with: 0.6% acetic acid ip		57.3 ± 1.87%
C=CC(=O)Nc1ccc(F)c(-c2ncnc3[nH]cc(C(=O)OCC)c23)c1	refers to: pSTAT5 second wave	CD4 T-cell blasts, mouse	15 nM, with: IL-2		> 50%
NS(=O)(=O)c1ccc(-n2cc(CNc3ccc(Cl)cc3)c(-c3ccc(OCc4ccccc4)cc3)n2)cc1	acetic acid-induced writhing	mouse	oral, 20 mg/kg, 30 min pretreatment, writhes counted over 20 min, with: 0.6% acetic acid ip		57.2 ± 1.55%
Nc1nc2cc(CC[C@H]3C[C@@H](n4ccc5c(N)ncnc54)[C@H](O)[C@@H]3O)ccc2cc1Br	PRMT5-dependent methylation, refers to: SmD1/3-Me2	mouse NCI-H1048 xenograft, tumour	0.1 mg/kg daily, 6 days		25%
Clc1ccccc1NCc1cn(-c2ccccc2)nc1-c1ccc(OCc2ccccc2)cc1	acetic acid-induced writhing	mouse	oral, 20 mg/kg, 30 min pretreatment, writhes counted over 20 min, with: 0.6% acetic acid ip		53.5 ± 2.26%
CC(=O)C12NC(C)(C)CC1(C)C(=O)C1=C2c2c(c3c4n2C(C)(C)CC2=C4C4(CC(C)(C)NC(C)(C4)C2=O)CC3(C)C)C(=O)C(C)(C)N1 (single isomer, unassigned; (-))	acetic acid-induced writhing	mouse	intraperitoneal, 0.04 mg/kg, 0.5 h, writhes counted over 30 min		30.8 ± 2.3%
COc1c2c(cc3oc(C)cc(=O)c13)O[C@H](C(C)(C)O[C@@H]1O[C@H](CO)[C@@H](O)[C@H](O)[C@H]1O)C2	ear edema weight	mouse, xylene ear edema	oral, 1 mg/kg	relative to: vehicle	5%
Fc1ccc(NCc2cn(-c3ccccc3)nc2-c2ccc(OCc3ccccc3)cc2)cc1	acetic acid-induced writhing	mouse	oral, 20 mg/kg, 30 min pretreatment, writhes counted over 20 min, with: 0.6% acetic acid ip		49.2 ± 1.87%

Some of these lines once more:
Structure (SMILES)	assay	system	setting	scale	inhibition
Cc1cc(NC(=O)[C@H](O)c2cc(F)cc(F)c2)ccc1-c1cnc(N)c(C(=O)NC(C)C)c1	refers to: phospho-PERK	mouse, pancreas	oral, 100 mg/kg, 12 h		> 80%
CC(C)c1cnc(-c2cc(Cl)ccc2F)cc1Nc1ccncc1C(=O)NC(CO)CO	refers to: pSMAD2	4T1 tumour-bearing mouse, tumour	100 mg/kg twice daily, 0 to 8 h average	relative to: vehicle	82%
